Results gathered from unrelated publications.
Each line is one published result; not all experiments were run side by side. Several values in a cell are separate wells, animals, samples, runs or records. Numbers after ± are the reported error.
ALB: Albumin (ALB, Homo sapiens, UniProt P02768)
UniProt P11712, sequence (whole entry, looked up): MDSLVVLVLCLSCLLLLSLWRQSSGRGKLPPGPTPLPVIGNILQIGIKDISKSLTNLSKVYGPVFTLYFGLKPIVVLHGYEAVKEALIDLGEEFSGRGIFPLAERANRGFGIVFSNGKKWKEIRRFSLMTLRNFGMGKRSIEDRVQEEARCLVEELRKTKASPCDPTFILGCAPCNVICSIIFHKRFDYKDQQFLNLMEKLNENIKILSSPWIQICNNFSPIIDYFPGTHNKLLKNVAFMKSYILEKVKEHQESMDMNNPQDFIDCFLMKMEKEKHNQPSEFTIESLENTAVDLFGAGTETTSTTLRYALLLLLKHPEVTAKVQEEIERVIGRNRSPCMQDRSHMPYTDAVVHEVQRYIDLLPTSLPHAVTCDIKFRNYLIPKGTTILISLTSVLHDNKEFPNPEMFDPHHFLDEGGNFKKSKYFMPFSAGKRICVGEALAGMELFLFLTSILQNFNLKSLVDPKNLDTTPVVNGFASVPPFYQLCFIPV
UniProt P08183, sequence (whole entry, looked up): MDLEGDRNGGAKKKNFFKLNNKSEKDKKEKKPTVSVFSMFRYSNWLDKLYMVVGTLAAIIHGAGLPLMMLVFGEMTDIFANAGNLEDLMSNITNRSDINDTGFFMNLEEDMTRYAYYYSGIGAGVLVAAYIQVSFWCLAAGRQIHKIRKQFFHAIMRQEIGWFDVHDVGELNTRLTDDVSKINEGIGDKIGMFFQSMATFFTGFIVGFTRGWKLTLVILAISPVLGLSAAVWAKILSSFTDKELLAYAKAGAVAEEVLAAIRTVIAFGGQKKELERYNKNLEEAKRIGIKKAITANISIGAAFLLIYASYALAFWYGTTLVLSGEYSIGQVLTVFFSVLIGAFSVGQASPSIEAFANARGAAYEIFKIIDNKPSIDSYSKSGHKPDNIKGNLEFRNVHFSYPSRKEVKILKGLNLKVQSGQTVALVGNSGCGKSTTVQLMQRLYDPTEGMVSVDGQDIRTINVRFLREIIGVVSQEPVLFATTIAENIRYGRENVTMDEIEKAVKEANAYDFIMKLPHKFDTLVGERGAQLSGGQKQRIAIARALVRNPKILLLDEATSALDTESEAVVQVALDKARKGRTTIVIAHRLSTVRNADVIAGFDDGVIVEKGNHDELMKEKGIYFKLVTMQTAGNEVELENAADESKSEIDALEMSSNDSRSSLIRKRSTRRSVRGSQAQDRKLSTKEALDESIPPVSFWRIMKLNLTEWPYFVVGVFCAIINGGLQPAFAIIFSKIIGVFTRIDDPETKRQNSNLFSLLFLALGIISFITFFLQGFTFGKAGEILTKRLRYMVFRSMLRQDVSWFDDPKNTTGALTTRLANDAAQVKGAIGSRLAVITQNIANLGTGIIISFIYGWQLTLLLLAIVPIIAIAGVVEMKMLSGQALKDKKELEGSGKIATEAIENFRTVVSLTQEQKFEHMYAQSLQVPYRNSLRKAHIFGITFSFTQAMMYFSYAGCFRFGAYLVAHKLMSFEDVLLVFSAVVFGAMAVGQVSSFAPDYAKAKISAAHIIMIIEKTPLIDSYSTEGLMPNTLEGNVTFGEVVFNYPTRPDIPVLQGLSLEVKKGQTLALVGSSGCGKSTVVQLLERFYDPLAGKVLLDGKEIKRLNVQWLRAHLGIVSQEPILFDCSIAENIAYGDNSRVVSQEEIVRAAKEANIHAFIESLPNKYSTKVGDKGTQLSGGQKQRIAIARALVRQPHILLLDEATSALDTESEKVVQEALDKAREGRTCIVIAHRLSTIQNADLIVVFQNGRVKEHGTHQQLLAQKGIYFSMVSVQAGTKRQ

Compound	tested on	assay	test system	conditions	scale	quantity	value
CCc1c(-c2ccc3[nH]ncc3c2)cnc(N)c1-c1ccc(O)cc1	CHP-212 resistant sublines (heterozygous USP7 V517F)	cell viability		6.25 µM		viability	103% and 101%
O=C(Nc1cnccc1-c1ccc([18F])cc1)c1ccnc(NC(=O)C2CC2)c1		ex vivo biodistribution, gamma counting	GSK-3β overexpressing transgenic mouse, late stage, pancreas	intravenous, 1.26 MBq/animal, 120 min post-injection		mean SUV	0.36
COC1CN([C@H]2CC[C@H]([C@@]3(C)Oc4c(Cl)cc(C(=O)NCc5c(SC)cc(C)[nH]c5=O)c(C)c4O3)CC2)C1		RNA-seq, measured: SH3D19 mouse homolog	mouse, HT-1376 xenograft, whole blood	dose not given	baseline: vehicle	log2 fold change	0.276
Cc1nc(N)nc2c1C(=O)N[C@@H](c1ccc(F)cc1-c1cccc(O[11CH3])n1)C2		ex vivo biodistribution	mice, MDA-MB-231 subcutaneous xenograft, brain	60 min post-injection, baseline, vehicle pre-treatment		tracer uptake	5 ± 0.8 %ID
C=CC(=O)Nc1cccc(Cn2ncc3cnc(Nc4cnn(CCOC)c4)nc32)c1	EPHA3 human	binding, KINOMEscan		100 nM	lower = stronger binding	percent of control	80%
CCN(CC)CC#CCNc1ccnc2cc(Cl)ccc12	Salmonella typhimurium	mini-Ames test	TA97a	62.5 µg/well, with rat liver S9		revertants per well	17
O=C1C2CC3CC1CC(C(=O)N1CCN(c4ccc([N+](=O)[O-])c5ncccc45)CC1)(C3)C2	Salmonella typhimurium	Ames test	TA97a	0.78 µg/well, without S9	baseline: vehicle	revertant fold increase	1.2
Cc1nc(Nc2ncc(C(=O)Nc3c(C)cccc3Cl)s2)cc(N2CCN(C(=O)CCOCCNC(=O)CN)CC2)n1	K562	cell growth or viability, CCK-8		10 nM		viability	59% and 62%
N#C[C@@H]1CC(F)(F)CN1C(=O)CNC(=O)c1ccnc2c(NC(=O)[C@@H](N)CCCCNC(=O)CCOCCOCCOCCOCCOCCOCCNC(=O)CN3CCN(CC(=O)[O-])CCN(CC(=O)[O-])CCN(CC(=O)[O-])CC3)cccc12.[177Lu+3]	U-87 MG tumour model		host not given, liver	4 h, tumour-bearing		tracer uptake	0.38 %ID/g
CNc1nc(N)nc2c1ncn2[C@@H]1O[C@H](CO)[C@@H](O)[C@@]1(C)F	ABCB1 (Homo sapiens, UniProt P08183)	bidirectional transport	LLC-PK1, human MDR1, transfected with	10 µM, together with: zosuquidar 1 µM		Papp A to B	14.2 ± 0.6 ×10⁻⁶ cm/s
N#C[C@@H]1CC(F)(F)CN1C(=O)CNC(=O)c1ccnc2c(NC(=O)CCOCCOCCOCCOCCOCCOCCNC(=O)[C@H](CCCCNC(=O)CN3CCN(CC(=O)[O-])CCN(CC(=O)[O-])CCN(CC(=O)[O-])CC3)NC(=O)CCCc3ccc(I)cc3)cccc12.[177Lu+3]	U-87 MG tumour model		host not given, heart	4 h, tumour-bearing		tracer uptake	0.9 %ID/g
COc1cccc(OC)c1-c1cc(C(=O)NC2(C(=O)O)C3CC4CC(C3)CC2C4)nn1-c1ccc(C(=O)N(C)CCOCCOCCN(C)C(=O)[C@H](CCCCNC(=O)[C@H](CC(C)C)NC(=O)C2OC2C(=O)O)NC(=O)CN2CCN(CC(=O)[O-])CCN(CC(=O)[O-])CCN(CC(=O)[O-])CC2)cc1C(C)C.[177Lu+3] (mixture of isomers)	HT-29 tumour model		host not given, pancreas	24 h, tumour-bearing		tracer uptake	0.13 %ID/g
CN1CCN(c2ccc3[nH]c(-c4ccc5[nH]c(-c6ccc(OCCCCNC(=O)c7ccc8c(c7)C(=O)OC87c8ccc(N(C)C)cc8C(C)(C)c8cc(N(C)C)ccc87)cc6)nc5c4)nc3c2)CC1	ALB	binding, fluorescence titration	PBS	1 h		Kd	18 ± 4 µM
COC(=O)Nc1nc2cc(C(O)c3ccc(F)cc3)ccc2[nH]1 (stereo not drawn)	Salmonella typhimurium	Ames preincubation test	TA98	875.0 µg per plate, 3 days, without S9, precipitation		revertants	28.7 revertants per plate
COc1cccc(OC)c1-c1cc(C(=O)NC2(C(=O)O)C3CC4CC(C3)CC2C4)nn1-c1ccc(C(=O)N(C)CCCN(C)C(=O)[C@H](CCCCNC(=O)[C@H](CC(C)C)NC(=O)C2OC2C(=O)O)NC(=O)CN2CCN(CC(=O)[O-])CCN(CC(=O)[O-])CCN(CC(=O)[O-])CC2)cc1C(C)C.[177Lu+3] (mixture of isomers)	HT-29 tumour model		host not given, pancreas	7 days, tumour-bearing		tracer uptake	0.05 %ID/g
CNC(=O)C1CCCN(C(=O)C2CC3CCC2N3C(=O)[C@@H]2C[C@@H](O)CN2C(=O)NCc2cccc(Cl)c2F)C1 (mixture of isomers)	Cytochrome P450 2C9 (CYP2C9, Homo sapiens, UniProt P11712)	preincubation with NADPH	human	0.617 µM	baseline: negative control	remaining activity	107% and 101% and 100%
CC(C)OCCOCc1ccc(OCC(O)CN(N=O)C(C)C)cc1 (stereo not drawn)	Salmonella typhimurium	Ames test	TA1537	158 µg/plate, 30 % hamster S9	baseline: solvent control	revertant fold increase	0.7 fold
CC(C)Cc1ccc(C(C)C(=O)N[C@@H](CCCCNC(=O)CCOCCOCCOCCOCCOCCOCCNC(=O)CN2CCN(CC(=O)[O-])CCN(CC(=O)[O-])CCN(CC(=O)[O-])CC2)C(=O)Nc2cccc3c(C(=O)NCC(=O)N4CC(F)(F)C[C@H]4C#N)ccnc23)cc1.[177Lu+3] (stereo partly drawn)	U-87 MG tumour model		host not given, heart	48 h, tumour-bearing		tracer uptake	0.25 %ID/g
C=C(NC(=O)c1csc(-c2nc3c(cc2O)-c2nc(cs2)C(=O)NC(C(C)O)C(=O)NC(=C(C)OC)c2nc(cs2)C(=O)NC2c4nc(cs4)C(=O)NC(COC(=O)c4c5c6c(cccc6n4O)COC(=O)C(OC4CC(C)(O)C(N(C)C)C(C)O4)C2OC5)c2nc-3cs2)n1)C(N)=O (stereo not drawn)			ICR mice, Streptococcus pneumoniae ATCC 49169 infected, immunocompromised, blood	intravenous, 8 mg/kg/day three times daily		MRT(0-t)	8.67 h
Cc1ncsc1-c1ccc(C(C)NC(=O)C2CC(O)CN2C(=O)C(NC(=O)CCCCCCCCCCN2CCCC(Nc3ncc(Cl)c(Nc4ccccc4S(=O)(=O)C(C)C)n3)C2)C(C)(C)C)cc1 (stereo not drawn)	22Rv1	RNA-seq, measured: TAB1 mRNA		concentration not given	baseline: DMSO	log2 fold change	-1.12
CN1CCN(c2ccc3[nH]c(-c4ccc5[nH]c(-c6ccc(OCCCCNC(=O)c7ccc8c(c7)C(=O)OC87c8ccc(N(C)C)cc8[Si](C)(C)c8cc(N(C)C)ccc87)cc6)nc5c4)nc3c2)CC1	ALB	binding, fluorescence titration	PBS	1 h		Kd	25 ± 6 µM

Repeated from above:
Compound	tested on	assay	test system	conditions	scale	quantity	value
COC(=O)Nc1nc2cc(C(O)c3ccc(F)cc3)ccc2[nH]1 (stereo not drawn)	Salmonella typhimurium	Ames preincubation test	TA98	875.0 µg per plate, 3 days, without S9, precipitation		revertants	28.7 revertants per plate
CCc1c(-c2ccc3[nH]ncc3c2)cnc(N)c1-c1ccc(O)cc1	CHP-212 resistant sublines (heterozygous USP7 V517F)	cell viability		6.25 µM		viability	103% and 101%
Cc1nc(Nc2ncc(C(=O)Nc3c(C)cccc3Cl)s2)cc(N2CCN(C(=O)CCOCCNC(=O)CN)CC2)n1	K562	cell growth or viability, CCK-8		10 nM		viability	59% and 62%
